# Assay results from different studies.
# Several values in a cell are separate wells, animals, samples, runs or records. Numbers after ± are the reported error.
# TOP2A: DNA topoisomerase 2-alpha (TOP2A, Homo sapiens, UniProt P11388)
# BEST2: Bestrophin-2a (BEST2, Homo sapiens, UniProt Q8NFU1)
# Pteridine reductase 1: Pteridine reductase 1 (Leishmania major, UniProt Q01782)
# T1: ssDNA, aptamer; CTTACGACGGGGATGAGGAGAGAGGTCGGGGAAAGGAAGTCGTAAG
Structure (SMILES),target,assay,test system,setting,how to read,quantity,result
CC(NC(=O)CCCc1ccc2ccc3cccc4ccc1c2c34)C(=O)NO (stereo not shown),"HDAC8 (Homo sapiens, UniProt Q9BY41)",ITC,triethanolamine buffer,"concentration not given, pH 7.5",,binding stoichiometry,0.9
Nc1ncnc2c1ncn2[C@@H]1O[C@H](COP(=O)(O)OP(=O)(O)OP(=O)(O)O)[C@@H](O)[C@H]1O,"T1, ssDNA, aptamer",ITC,,,,Kd,703 nM
c1coc(-c2n[nH]cc2-c2ccnc3ccccc23)c1,"Casein kinase I HRR25 (Candida albicans, UniProt Q59S64)","kinase binding, MIB/MS competition",Candida albicans lysate,10 µM,"relative to: DMSO, negative = stronger binding",log2 fold change,-0.55
CC(=O)NCCCC[C@H](NC(=O)CNC(=O)[C@H](CCCNC(=N)N)NC(C)=O)C(=O)Nc1ccc2c(C)cc(=O)oc2c1,human Y386F/Y782F mutant enzyme,"substrate, fluorogenic",,,,Km,39 ± 3 µM
CSCC[C@H](NC(=O)[C@H](CCC(=O)O)NC(=O)[C@H](CCC(N)=O)NC(=O)[C@H](CO)NC(=O)CCCC[C@@H]1SC[C@@H]2NC(=O)N[C@@H]21)C(=O)N[C@H](C(=O)N[C@@H](Cc1c[nH]cn1)C(=O)N[C@@H](CC(C)C)C(=O)N[C@H](C(=O)N[C@@H](CC(N)=O)C(=O)N[C@@H](CCCCN)C(=O)N[C@@H](CCC(=O)O)C(=O)N1CCC[C@H]1C(=O)N[C@@H](CO)C(=O)N[C@@H](CCC(=O)O)C(=O)N[C@H](C(=O)N1CCC[C@H]1C(=O)N[C@@H](CC(=O)O)C(=O)N[C@@H](CCC(N)=O)C(=O)N[C@@H](CS)C(=O)N[C@@H](CCSC)C(=O)N[C@H](C(=O)N[C@@H](C)C(=O)N[C@@H](CC(=O)O)C(=O)N[C@@H](CCC(=O)O)C(=O)O)[C@@H](C)O)[C@@H](C)O)C(C)C)C(C)C,mouse Tiam2 R716A,SPR,,concentration not given,relative to: wild type,relative binding affinity,~20%
Cc1nc(CSc2nc(SCc3cc(F)cc(C(F)(F)F)c3)nc(=O)[nH]2)cs1,TOP2A,decatenation,,"125 µM, replicate 1",,decatenated DNA,0%
CC[C@@H]1[C@H](F)C(=O)N[C@@H]1COc1nccc2cc(C(N)=O)c(OC)cc12,"CHEK2 (Homo sapiens, UniProt O96017)","ATP-site probe binding, ActivX profiling",THP-1 cell lysate,"0.2 mM, Lys1 site",,inhibition,3.8%
C1=C/COCc2cc(ccc2OCCN2CCCC2)Nc2nccc(n2)-c2cccc(c2)COC/1,"MAP4K3 (Homo sapiens, UniProt Q8IVH8)",,,concentration not given,,percent of control,80%
Nc1ccc(C(=O)O)cc1,BEST2,whole-cell patch clamp,HEK293 transiently expressing channel,"concentration not given, membrane potential 80 mV",,current density,82.6 pA/pF and 199 pA/pF and 172 pA/pF and 280 pA/pF and 326 pA/pF and 250 pA/pF
COC(=O)C1CCN(C(=O)c2ccc(SCc3cnc4nc(N)nc(N)c4n3)nc2)CC1,Pteridine reductase 1,,,hDHFR weight 10,"relative to: LmPTR1, LmDHFR over hDHFR, 1.0 selective, 0.0 non-selective",partition index,0.99
NC/C(=C\F)COc1cccc(Cn2c(=S)[nH]c(=O)c3[nH]cnc32)c1,"Myeloperoxidase (MPO, Homo sapiens, UniProt P05164)","inhibitor, cholesteryl ester hydroperoxide",,0.0556 µM,relative to: control,LDL lipid peroxidation,32.1% and 28.5% and 24.6%
O=C(O)C1=CCNCC1,BEST2,whole-cell patch clamp,HEK293 transiently expressing channel,"concentration not given, membrane potential 80 mV",,current density,65.7 pA/pF and 213 pA/pF and 316 pA/pF and 178 pA/pF and 171 pA/pF
CC(=O)N[C@H](C(=O)N1C[C@H](O)C[C@H]1C(=O)NCc1ccc(-c2scnc2C)cc1)C(C)(C)SCCCCCCNC(=O)C[C@@H]1N=C(c2ccc(Cl)cc2)c2c(sc(C)c2C)-n2c(C)nnc21,"BRD4/VHL, BD1; with elongins B/C (Homo sapiens, UniProt O60885+P40337)","ternary complex binding, ITC",,"25 °C, unit not given, with: VHL-ElonginB-ElonginC, PROTAC:Brd4^BD1","relative to: binary binding to VHL-ElonginB-ElonginC, positive = cooperative",ΔpKd ternary minus binary,-0.1 ± 0.2
CC(Oc1ccccc1)C(=O)NCc1ccccn1 (stereo not shown),"DNA (cytosine-5)-methyltransferase 3A, PWWP domain (DNMT3A, Homo sapiens, UniProt Q9Y6K1)","binding, affinity selection mass spectrometry",,,relative to: other proteins in batch,log fold enrichment,-0.168
NC(=O)C1CCN(C(=O)Cc2ccc(N(CCCO)Cc3cnc4nc(N)nc(N)c4n3)cc2)CC1,Pteridine reductase 1,,,hDHFR weight 10,"relative to: LmPTR1, LmDHFR over hDHFR, 1.0 selective, 0.0 non-selective",partition index,0.96
O=C(CCCCc1ccc(CO)cc1)C(F)(F)C(F)(F)F,"PLA2G6 (Homo sapiens, UniProt O60733)",PLA2 activity,,,relative to: IC50 GIVA cPLA2 over IC50 PLA2G6,selectivity ratio,~192
CC[C@@H](C)[C@@H](NC(=O)[C@@H](Cc1ccc(O)cc1)NC(=O)[C@H]1CCCN1C(=O)[C@@H](CCCNC(=N)N)NC(=O)[C@H](N)Cc1c[nH]cn1)C(=O)N[C@H](C)C(=O)N[C@H](Cc1c[nH]cn1)C(=O)N[C@H](CCCNC(=N)N)C(=O)N[C@@H](C(=O)N[C@H](Cc1ccc(O)cc1)C(=O)N[C@H](CO)C(=O)N[C@H](Cc1ccccc1)C(N)=O)C(C)C,"Programmed cell death 1 ligand 1, with PD-1 (Cd274, Mus musculus, UniProt Q9EP73)",PD-1-Fc binding,MC-38,"concentration not given, 48 h",,PD-L1 blocking rate,7.78% and 7.6% and 9.98%
CCS(=O)(=O)c1cccc(-c2cc(C(=O)NC3CCN(C)CC3)c(C)c3[nH]c4ncc(C)cc4c23)c1,"PKN1 (Homo sapiens, UniProt Q16512)",inhibitor,,,,Hill slope,-0.863
Cc1c(COc2ccc(CN3CCCCC3C(=O)NCCCCCCC(=O)N(C)CCCC34CCC(c5ccccc53)c3ccccc34)cc2Br)cccc1-c1ccccc1 (stereo not shown),"CD274 (Homo sapiens, UniProt Q9NZQ7)","degrader, western blot",HL-60,1 µM,,degradation,23.3 ± 3.3%
CCC(C)(NCCc1ccc(C(F)(F)F)c(Cl)c1)c1cccc(NC2=CC(=O)N(C3CCC(=O)NC3=O)C2=O)c1 (stereo not shown),"Cereblon/Ikaros (Homo sapiens, UniProt Q13422+Q96SW2)","protein degradation, degrader, HiBiT luminescence",Jurkat,,,Dmax,77%
Nc1ncnc2c1ncn2[C@@H]1O[C@H](COP(=O)(O)CP(=O)(O)OP(=O)(O)O)[C@@H](O)[C@H]1O,"P2X purinoceptor 1 (P2RX1, Homo sapiens, UniProt P51575, E122A)",saturation binding,,1 nM,,specific binding,11.5 corrected cpm and 10 corrected cpm
CCN1CCC[C@H]1CNC(=O)c1c(O)c(Cl)cc(Cl)c1OC,"G-protein coupled receptor 15 (Homo sapiens, UniProt P49685)","β-arrestin recruitment, TANGO luminescence, measured: GPR15",,concentration not given,relative to: basal luminescence,log2 fold change,0.153
O=C(O)c1ccc([N+](=O)[O-])cc1,BEST2,whole-cell patch clamp,HEK293 transiently expressing channel,"concentration not given, membrane potential 0 mV",,current density,-0.27 pA/pF and -0.2 pA/pF and -0.54 pA/pF and 0.03 pA/pF and -0.8 pA/pF
CC(C)c1noc2ncc(C(=O)c3ccccc3O)cc12,"Otop1 (Mus musculus, UniProt Q80VM9)","proton current, potentiator, whole-cell patch-clamp",HEK-293T,"10 µM, pH 5.5",relative to: current before compound,current potentiation,1.69 fold
O=C1N[C@H](c2cncc(C#Cc3ccccc3)c2)[C@@H](c2ccccc2Cl)O1,"Metabotropic glutamate receptor 5 (Mus musculus, UniProt Q3UVX5)",PET,"mouse, brain","oral, 7.5 mg/kg, 2 h",,receptor occupancy,98%
CCC(N)C(=O)O (racemic),"Uncharacterized protein (Pelagibacter ubique, UniProt Q4FM26)",differential scanning fluorimetry,Candidatus Pelagibacter ubique,in-house screen,,thermal shift,5.03 °C
O=c1nc(SCc2cc(F)cc(C(F)(F)F)c2)nc(SCc2ccc3sccc3c2)[nH]1,TOP2A,DNA relaxation,,62.5 µM,,mean relaxed DNA,0.6%
CCCCCCCCCCCCC/C=C/[C@@H](O)[C@@H](N)COP(=O)(O)O,"KCNK2 (Homo sapiens, UniProt O95069)","lipid binding, BRET",,"100 µM, with: fluorescent PIP2 500 nM",,PIP2 binding competition,not detected
Cc1nc(CSc2nc(SCc3ccc(C(F)(F)F)cc3)nc(=O)[nH]2)cs1,TOP2A,decatenation,,"125 µM, replicate 1",,decatenated DNA,25.6%
O=c1cc(-c2ccc(OS(=O)(=O)O)cc2)oc2cc(OS(=O)(=O)O)cc(OCc3cccc(COc4cc(OS(=O)(=O)O)cc5oc(-c6ccc(OS(=O)(=O)O)cc6)cc(=O)c45)n3)c12,"Neutrophil elastase (ELANE, Homo sapiens, UniProt P08246)",,,"1000 nM, with: chromogenic substrate",,Km,1670 ± 373 µM
COc1ccc(OC)c(-c2cc(C(C)=O)n3ccccc23)c1,"BRD9 (Homo sapiens, UniProt Q9H8M2)","thermal stability, thermal shift",,"200 µM, with: protein 10 µM",,delta Tm,7.3 °C
CC(C)c1ccc(CSc2nc(SCc3ccc4sccc4c3)[nH]c(=O)n2)cc1,TOP2A,decatenation,,7.8 µM,,mean decatenated DNA,100%
CCCCC[C@H](O)/C=C/[C@H]1[C@H](O)CC(=O)[C@@H]1C/C=C\CCCC(=O)O,"PTGER1 (Homo sapiens, UniProt P34995, G92S)","IP1 accumulation, agonist",AD293,"1 h, EP1 G92S mutant",,Emax,108 ± 6.35%
Nc1nc2c(ncn2[C@@H]2O[C@H](COP(=O)(O)O)[C@@H](O)[C@H]2O)c(=O)[nH]1,"GUK1 (Homo sapiens, UniProt Q16774, T83A)","enzyme activity, NADH-coupled",,,,kcat,31.9 s⁻¹
O=c1nc(SCc2cc(F)cc(C(F)(F)F)c2)nc(SCc2ccc3ncsc3c2)[nH]1,TOP2A,decatenation,,"125 µM, replicate 1",,decatenated DNA,0%
CC1=C(/C=C/C(C)=C/C=C/C(C)=C/C(=O)O)C(C)(C)CCC1,"CRABP2 (Homo sapiens, UniProt P29373, L122E/R133K/W110L)",tryptophan fluorescence quenching,,concentration not given,"relative to: R132K:W109L:L121E over R132K:W109L, higher = stronger binding",binding affinity fold change,> 34 fold
O=c1nc(SCc2cc(F)cc(C(F)(F)F)c2)nc(SCc2ccc3ccccc3n2)[nH]1,TOP2A,decatenation,,"15.6 µM, replicate 2",,decatenated DNA,79.1%
c1ccc(CCCCCOCCc2ccc3[nH]ccc3c2)cc1,"ATP2A2 (Sus scrofa, UniProt P11607)","ATPase activity, activator",pig microsomes,10 µM,,increase in Vmax,~37%
Cc1c(COc2ccc(CN3CCCCC3C(=O)O)cc2Br)cccc1-c1ccccc1 (stereo not shown),"Cd274 (Mus musculus, UniProt Q9EP73)",western blot,"mouse B16-F10 tumour, tumour","intravenous, dose not given, unit not given",relative to: control,protein level,0.982 and 0.762 and 0.962
O=c1nc(SCc2ccc(C(F)(F)F)cc2)nc(SCc2ccc3sccc3c2)[nH]1,TOP2A,decatenation,,15.6 µM,,mean decatenated DNA,82.6%

# Repeated from above:
Structure (SMILES),target,assay,test system,setting,how to read,quantity,result
O=C(O)c1ccc([N+](=O)[O-])cc1,BEST2,whole-cell patch clamp,HEK293 transiently expressing channel,"concentration not given, membrane potential 0 mV",,current density,-0.27 pA/pF and -0.2 pA/pF and -0.54 pA/pF and 0.03 pA/pF and -0.8 pA/pF
CC(C)c1noc2ncc(C(=O)c3ccccc3O)cc12,"Otop1 (Mus musculus, UniProt Q80VM9)","proton current, potentiator, whole-cell patch-clamp",HEK-293T,"10 µM, pH 5.5",relative to: current before compound,current potentiation,1.69 fold
O=C1N[C@H](c2cncc(C#Cc3ccccc3)c2)[C@@H](c2ccccc2Cl)O1,"Metabotropic glutamate receptor 5 (Mus musculus, UniProt Q3UVX5)",PET,"mouse, brain","oral, 7.5 mg/kg, 2 h",,receptor occupancy,98%
